Measured values from different studies.
Each line is one published result; not all experiments were run side by side. Numbers after ± are the reported error.

| SMILES | assay | test system | conditions | AUC(0-24) |
| --- | --- | --- | --- | --- |
| N#Cc1ccc2c(c1)[C@H]1CCCN(C(=O)c3ccc4[nH]cnc4c3)[C@H]1C2 |  | human, plasma | oral, 20 mg once daily, after first dose | 13200 nM·h |
| Cn1c(=O)oc2ccc(-c3ccc(C[C@@H](C#N)NC(=O)[C@@H]4CNCCCO4)cc3)cc21 | HPLC-MS/MS | healthy male humans, plasma | oral, 10 mg | 2830 nM·h |
| Cc1ccc([C@@H]2O[C@H](CO)[C@@H](O)[C@H](O)[C@H]2O)cc1Cc1ccc(-c2ccc(F)cc2)s1 |  | human, maintenance hemodialysis patients | oral, 300 mg once daily, day 8, steady state, mean | 20.9 µg·h/mL |
| C[C@@H]1CCO[C@H]2Cn3cc(C(=O)NCc4ccc(F)cc4F)c(=O)c(O)c3C(=O)N12 |  | human paediatric patients, weight sample B to under sample C kg, plasma | oral, 20 mg film-coated tablet, steady state, geometric mean, population PK post-hoc, N 2 | 28.9 µg·h/mL |
| Cc1nc(-c2ccc(OCC(C)C)c(C#N)c2)sc1C(=O)O |  | human, plasma | oral, 20 mg once daily, together with: verinurad 5 mg | 2.41 µg·h/mL |
| COc1cc(C(=O)NC2CCN(C)CC2)c(F)cc1Nc1ncc(C(F)(F)F)c(Oc2cccc3c2C(=O)N(C)C3)n1 |  | human patients | oral, 25 mg, cycle 1 day 1, geometric mean | 2180 nM·h |
| CO[C@H]1CC[C@H](N2C(=O)CNc3ncc(-c4ccc(C(C)(C)O)nc4)nc32)CC1 |  | human, plasma | oral, 60 mg, day -1, geometric mean | 2.03 µg·h/mL |
| CC(=O)O.NC(=O)c1cnc(N[C@@H]2CCCC[C@@H]2N)nc1Nc1cccc(-n2nccn2)c1 |  | human, plasma | oral, 33 mg once daily | 0.624 µg·h/mL |
| CC(C)[C@H](N)C(=O)NCCCS(=O)(=O)O |  | human both sexes, plasma | oral, 340 mg BID days 8-13, QD day 14, day 14, fed capsule | 13.8 µg·h/mL |
| Cc1cc(Nc2cc3ncccc3c(N[C@@H]3C[C@H]4CC[C@@H](C3)N4CCC#N)n2)n[nH]1 |  | human, plasma | 10 mg, day 1 | 0.00191 µg·h/mL |
| CC(C)(Sc1ccncc1-c1ccc(C#N)c2ccccc12)C(=O)O |  | human, plasma | oral, 5 mg once daily, together with: febuxostat 40 mg | 0.122 µg·h/mL |
| CC(=O)O[C@H]1C(=O)[C@@]2(C)[C@H]([C@H](OC(=O)c3ccccc3)[C@]3(O)C[C@H](OC(=O)[C@H](O)[C@@H](NC(=O)c4ccccc4)c4ccccc4)C(C)=C1C3(C)C)[C@]1(OC(C)=O)CO[C@@H]1C[C@@H]2O |  | human, plasma | intravenous, 80 mg/m^2, day 8, DL3, together with: nilotinib 400 mg | 2770 ± 783 nM·h |

Some of these lines once more:
| SMILES | assay | test system | conditions | AUC(0-24) |
| --- | --- | --- | --- | --- |
| CC(=O)O[C@H]1C(=O)[C@@]2(C)[C@H]([C@H](OC(=O)c3ccccc3)[C@]3(O)C[C@H](OC(=O)[C@H](O)[C@@H](NC(=O)c4ccccc4)c4ccccc4)C(C)=C1C3(C)C)[C@]1(OC(C)=O)CO[C@@H]1C[C@@H]2O |  | human, plasma | intravenous, 80 mg/m^2, day 8, DL3, together with: nilotinib 400 mg | 2770 ± 783 nM·h |
